Experimental data gathered from unrelated publications.
A part holds a random share of what one study measured. Substitutions count along the parent as printed.

Series 1
Target: Sal-like protein 4, full length isoform A (SALL4, Homo sapiens, UniProt Q9UJQ4, residues 1-1053)
Sequence of UniProt Q9UJQ4 (whole entry, looked up): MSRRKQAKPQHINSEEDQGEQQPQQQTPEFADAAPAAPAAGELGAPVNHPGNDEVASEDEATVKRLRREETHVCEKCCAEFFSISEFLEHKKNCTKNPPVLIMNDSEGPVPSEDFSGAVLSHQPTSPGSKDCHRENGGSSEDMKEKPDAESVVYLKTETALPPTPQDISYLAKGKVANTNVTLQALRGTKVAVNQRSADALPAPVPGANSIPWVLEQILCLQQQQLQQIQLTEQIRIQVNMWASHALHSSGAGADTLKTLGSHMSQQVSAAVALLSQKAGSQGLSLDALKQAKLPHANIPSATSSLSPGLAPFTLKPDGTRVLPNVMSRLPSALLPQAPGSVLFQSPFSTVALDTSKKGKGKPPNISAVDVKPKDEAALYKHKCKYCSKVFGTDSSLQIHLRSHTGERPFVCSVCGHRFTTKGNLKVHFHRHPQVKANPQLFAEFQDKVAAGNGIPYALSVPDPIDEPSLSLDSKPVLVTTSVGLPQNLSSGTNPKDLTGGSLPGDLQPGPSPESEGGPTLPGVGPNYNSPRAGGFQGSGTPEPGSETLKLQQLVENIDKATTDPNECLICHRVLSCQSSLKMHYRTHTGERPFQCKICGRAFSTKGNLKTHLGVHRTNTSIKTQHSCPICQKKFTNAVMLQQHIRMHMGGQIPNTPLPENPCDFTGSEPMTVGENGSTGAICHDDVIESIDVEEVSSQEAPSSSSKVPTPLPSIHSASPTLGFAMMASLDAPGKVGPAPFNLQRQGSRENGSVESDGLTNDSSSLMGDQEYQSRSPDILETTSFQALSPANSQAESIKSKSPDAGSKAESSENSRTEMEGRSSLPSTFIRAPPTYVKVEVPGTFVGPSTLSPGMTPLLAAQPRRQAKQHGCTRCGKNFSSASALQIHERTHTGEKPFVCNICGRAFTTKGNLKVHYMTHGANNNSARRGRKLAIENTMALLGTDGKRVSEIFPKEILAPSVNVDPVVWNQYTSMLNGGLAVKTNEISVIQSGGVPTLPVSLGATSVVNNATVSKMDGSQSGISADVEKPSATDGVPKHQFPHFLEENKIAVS
Technique: universal PBM
Form: double-stranded DNA, one strand shown
Sample: in vitro
Concentration: 600 nM
Setting: 8-mer, flanks averaged, mean of replicates
Direction: higher = stronger binding
Strand	E-score
GCGTCCTA	-0.307
AGAGGCTC	-0.259
CCTTCGAA	-0.117
CCATGTAC	0.0202
AAGCTGAG	-0.0913
ACCCTCAA	0.0125
CGCGGACG	-0.323
ATTAAGCG	0.1

Series 2
Target: CREM, bZIP domain (human)
Technique: DHFR protein complementation
Sample: yeast
Setting: single substitutions, most at no-binding floor
Baseline: wild-type JUN-FOS pair
Direction: higher = stronger binding
Starting sequence: JUN, bZIP domain (human); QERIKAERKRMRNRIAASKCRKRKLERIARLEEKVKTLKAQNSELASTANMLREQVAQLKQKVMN; partner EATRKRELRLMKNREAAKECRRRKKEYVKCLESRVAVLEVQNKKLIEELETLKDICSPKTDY
Change	binding fitness
A49D	-1.44 natural log
E44H	-1.35 natural log
E33P	-1.49 natural log
V56F	-1.27 natural log
L38T	-1.51 natural log
E33H	-1.54 natural log
K39E	-1.11 natural log
V35E	-1.44 natural log

Further values, each from its own experiment
P1: viral docking peptide; KGVKRKLFAEDSS; partner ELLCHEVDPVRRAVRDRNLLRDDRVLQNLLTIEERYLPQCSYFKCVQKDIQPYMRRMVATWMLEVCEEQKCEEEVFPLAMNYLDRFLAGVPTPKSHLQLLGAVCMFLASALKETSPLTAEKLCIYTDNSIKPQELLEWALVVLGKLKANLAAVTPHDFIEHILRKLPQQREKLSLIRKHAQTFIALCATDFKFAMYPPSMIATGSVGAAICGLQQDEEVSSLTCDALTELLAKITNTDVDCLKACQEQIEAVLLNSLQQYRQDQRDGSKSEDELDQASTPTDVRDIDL
Substance	tested on	assay	system	conditions	how to read	measurement	value
HNRNPM (Homo sapiens, UniProt P52272)	MYEF2 (Homo sapiens, UniProt Q9P2K5)	cross-linking MS	cell fractions	with: DSSO	–	cross-linked residues	K388 to K521
P1 K4A	CCND2, cyclin fold, Cln2 fusion (human)	yeast growth competition, sequencing	yeast	weak parent motif	baseline: not given, higher = stronger binding	normalised enrichment score	0.289
PDCD11 (Homo sapiens, UniProt Q14690)	DDX56 (Homo sapiens, UniProt Q9NY93)	cross-linking MS	cell fractions	with: DSSO	–	cross-linked residues	T128 to T91
KIF5B (Homo sapiens, UniProt P33176)	KLC2 (Homo sapiens, UniProt Q9H0B6)	cross-linking MS	–	hits only	–	interaction screen	cross-linked
HSPA9 (Homo sapiens, UniProt P38646)	CASP8AP2 (Homo sapiens, UniProt Q9UKL3)	cross-linking MS	cell fractions	with: DSSO	–	cross-linked residues	K106 to K1193

Some of these lines once more (series 2):
Change	binding fitness
V35E	-1.44 natural log
K39E	-1.11 natural log
E44H	-1.35 natural log
